Assay results gathered from unrelated publications.
± gives the spread as reported.

The chains behind the UniProt entries cited, without tags or fusion partners.
UniProt Q16539, whole entry: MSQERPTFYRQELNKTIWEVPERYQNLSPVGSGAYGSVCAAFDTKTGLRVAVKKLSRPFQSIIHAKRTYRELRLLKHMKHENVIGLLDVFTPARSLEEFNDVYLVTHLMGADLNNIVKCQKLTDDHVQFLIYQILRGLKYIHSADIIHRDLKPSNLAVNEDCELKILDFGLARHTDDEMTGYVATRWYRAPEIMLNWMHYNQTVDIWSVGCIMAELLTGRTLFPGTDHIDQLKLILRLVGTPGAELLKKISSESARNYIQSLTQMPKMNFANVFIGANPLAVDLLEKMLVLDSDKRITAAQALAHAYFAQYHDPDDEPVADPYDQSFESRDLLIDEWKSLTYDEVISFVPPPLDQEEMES

| SMILES | tested on | test | setting | how to read | endpoint | value |
| --- | --- | --- | --- | --- | --- | --- |
| CC/C=C\C/C=C\CCC/C=C/C=C/C=C\CCCC(=O)O | NALM-6 | flow cytometry | 37.5 µM, 24 h | – | S phase cells | 37.1% |
| Cc1ccc(C#Cc2cccc(-c3nn(-c4nc(C(=O)O)cs4)c(CC4CC4)c3Cc3ccc(S(N)(=O)=O)c(F)c3)c2)s1 | HEK293T | lactate production | 1 h | – | IC50 | 500 nM |
| CCOC(=O)c1c(-c2ccc(Cl)cc2Cl)n(-c2nc(-c3ccc(Cl)cc3)c3c(NC(=O)c4ccccc4)nnc-3[nH]2)[nH]c1=O | COLO 205 | SRB | 10 µM | relative to: untreated | cell growth | -62.3% |
| CCN(CC)CCCC(C)Nc1cc(-c2ccccc2)nc2cc(OC)ccc12 (centres unmarked) | K562 | cytotoxicity, XTT | 96 h | – | IC50 | 440 ± 570 nM |
| CC(C)C[C@H](NC(=O)[C@H](C)NC(=O)[C@H](CCCNC(=N)N)NC(=O)[C@H](CCCNC(=N)N)NC(=O)[C@H](CCCNC(=N)N)NC(=O)[C@H](C)NC(=O)[C@H](CC(C)C)NC(=O)[C@H](CCCNC(=N)N)NC(=O)[C@H](CO)NC(=O)[C@H](CCCCN)NC(=O)[C@H](CO)NC(=O)Cn1cc(COC(=O)[C@]2(C)C=C(C(=O)OC(C)(C)C)C(=O)CC2)nn1)C(=O)O | MAPK14 (Homo sapiens, UniProt Q16539) | enzyme activity, inhibitor, D-SENSOR | 0.09145 µM | – | normalized kinase activity | 0.759 |
| CN(C)CCNC(=O)c1cccc2ccc(-c3ccc(-c4ccccc4)cc3)nc12 | MDA-MB-468 | protection from CB1954/NRH toxicity | 3 h, together with: 100 µM CB1954 plus 100 µM NRH | – | IC50 | 380 ± 270 nM |
| CC(C)CC(NC(=O)C(Cc1ccccc1)NC(=O)c1cnc(C(=O)NC(Cc2ccccc2)C(=O)NC(CC(C)C)B(O)O)cn1)B(O)O (centres unmarked) | MM1.S | cell invasion, Matrigel invasion | IC50 | relative to: untreated | inhibition | 65.2% |
| Cc1c(Cn2c(C)nc3c(C(=O)O)cc(N4CCOCC4)cc32)cccc1C(F)(F)F | PC-3 | cell growth, WST-8 | 3 days | – | EC50 | 9080 nM |
| N#Cc1c(-c2ccc(Cl)cc2Cl)n(-c2nc(-c3ccc(Cl)cc3)c3c(NC(=O)c4ccccc4)nnc-3[nH]2)[nH]c1=O | CCRF-CEM | NCI60 SRB | 10 µM | – | cell growth | 30.1% |
| CN(C)CCNC(=O)c1cc([N+](=O)[O-])cc2ccc(-c3ccccc3)nc12 | K562 | cytotoxicity, XTT | 96 h | – | IC50 | 1800 ± 1600 nM |
| C=C(C)C(=O)Nc1ccc(-c2c(-c3ccc(Oc4nccc(C)n4)c(F)c3)c3c(N)ncnc3n2C)cc1 | EN | cell growth, CellTiter-Glo | 120 h | – | GR Hill coefficient | 0.62 |

Some of these lines once more:
| SMILES | tested on | test | setting | how to read | endpoint | value |
| --- | --- | --- | --- | --- | --- | --- |
| CC/C=C\C/C=C\CCC/C=C/C=C/C=C\CCCC(=O)O | NALM-6 | flow cytometry | 37.5 µM, 24 h | – | S phase cells | 37.1% |
| Cc1ccc(C#Cc2cccc(-c3nn(-c4nc(C(=O)O)cs4)c(CC4CC4)c3Cc3ccc(S(N)(=O)=O)c(F)c3)c2)s1 | HEK293T | lactate production | 1 h | – | IC50 | 500 nM |
